Experimental data pooled from the literature.
Each numbered part is a random draw from the data of one study; scales do not carry over between parts. Substitutions count along the parent as printed.

Sample 1
Target: TAR DNA-binding protein 43, full length, His tag (TARDBP, Homo sapiens, UniProt Q13148, residues 1-414)
Technique: RNA Bind-n-Seq
Form: RNA
Sample: in vitro
Tested at: 20 nM
Setting: 6-mer, flanks averaged, single round
Added: 150 mM KCl
Baseline: input library
Direction: higher = stronger binding
| Oligonucleotide | 6-mer enrichment (R) |
| --- | --- |
| UGGGGC | 3.8 |
| GGGCCC | 1.63 |
| GAAUUA | 0.665 |
| GUCUAU | 0.614 |
| CUUGAC | 0.727 |
| UGCAGC | 0.86 |
| CUGCCG | 0.809 |
| AGCCGU | 0.77 |

Sample 2
Target: BATF2, bZIP domain (human)
Technique: DHFR protein complementation
Sample: yeast
Setting: single substitutions, most at no-binding floor
Baseline: wild-type JUN-FOS pair
Direction: higher = stronger binding
Starting sequence: JUN, bZIP domain (human); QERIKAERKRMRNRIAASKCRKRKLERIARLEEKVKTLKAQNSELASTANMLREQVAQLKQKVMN; partner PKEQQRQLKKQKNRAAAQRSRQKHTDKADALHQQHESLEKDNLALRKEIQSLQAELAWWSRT
| Variant | binding fitness [natural log] |
| --- | --- |
| E33H | -0.608 |
| E33Q | -0.432 |
| K36V | -0.388 |
| S43C | -0.343 |
| I28F | -0.635 |
| S43A | -0.0682 |
| L38C | -1.14 |
| L52I | -0.885 |

Sample 3
Target: UDP-N-acetylglucosamine--peptide N-acetylglucosaminyltransferase 110 kDa subunit (OGT, Homo sapiens, UniProt O15294)
Read-out: binding
Technique: phage display NGS
Form: peptide
Tested at: concentration not given
Baseline: input library
Residues (O15294 1-1046): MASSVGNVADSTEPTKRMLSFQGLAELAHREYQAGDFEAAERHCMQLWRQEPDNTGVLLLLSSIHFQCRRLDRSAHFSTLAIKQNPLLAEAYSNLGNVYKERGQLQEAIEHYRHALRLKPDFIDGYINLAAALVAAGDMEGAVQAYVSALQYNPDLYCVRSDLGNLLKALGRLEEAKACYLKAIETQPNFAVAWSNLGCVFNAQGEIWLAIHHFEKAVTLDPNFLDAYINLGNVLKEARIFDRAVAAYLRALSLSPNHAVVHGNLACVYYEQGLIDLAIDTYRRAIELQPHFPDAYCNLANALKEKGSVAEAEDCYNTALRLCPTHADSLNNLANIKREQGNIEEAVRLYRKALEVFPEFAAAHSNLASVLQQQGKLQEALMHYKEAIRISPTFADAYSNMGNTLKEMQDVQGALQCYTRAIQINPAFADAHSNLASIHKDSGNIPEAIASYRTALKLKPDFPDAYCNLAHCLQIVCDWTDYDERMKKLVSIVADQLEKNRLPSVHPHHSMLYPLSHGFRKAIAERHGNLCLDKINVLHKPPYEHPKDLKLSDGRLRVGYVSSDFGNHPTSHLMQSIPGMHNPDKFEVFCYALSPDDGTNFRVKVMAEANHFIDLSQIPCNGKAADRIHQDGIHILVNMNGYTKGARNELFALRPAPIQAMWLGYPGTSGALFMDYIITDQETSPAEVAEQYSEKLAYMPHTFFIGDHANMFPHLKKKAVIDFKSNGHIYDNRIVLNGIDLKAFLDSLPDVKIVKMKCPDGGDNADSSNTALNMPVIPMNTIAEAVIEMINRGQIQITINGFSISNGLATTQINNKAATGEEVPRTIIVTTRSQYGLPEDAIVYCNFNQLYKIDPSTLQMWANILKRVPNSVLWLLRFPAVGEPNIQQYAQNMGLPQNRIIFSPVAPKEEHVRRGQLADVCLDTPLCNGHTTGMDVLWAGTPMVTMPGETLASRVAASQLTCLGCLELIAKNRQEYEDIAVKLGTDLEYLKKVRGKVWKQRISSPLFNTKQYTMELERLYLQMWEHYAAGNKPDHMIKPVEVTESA
| Sequence | enrichment fold change |
| --- | --- |
| HFDHYYNAHEDHVA | 3.54 |
| SFKHYDHTFHYHEGS | 8.47 |
| HLKHHYLAFTTHHPG | 8.01 |
| QQFSKLFPPKYTIDF | 2.95 |
| HQAHRTHFPSRTDYV | 4.04 |

Sample 4
Target: CCND1, cyclin fold, Cln2 fusion (human)
Technique: yeast growth competition, sequencing
Sample: yeast
Setting: weak parent motif
Baseline: not given
Direction: higher = stronger binding
Starting sequence: viral docking peptide; PGASRRLFGSSAD
| Variant | normalised enrichment score |
| --- | --- |
| AGASRRLFGSSAD [P1A] | -0.191 |
| PGASKRLFGSSAD [R5K] | -0.0137 |
| PGASRRLFGASAD [S10A] | -0.296 |
| PGASARLFGSSAD [R5A] | 0.179 |
| PGASRRLLGSSAD [F8L] | 0.088 |
| PGAARRLFGSSAD [S4A] | 0.858 |
| PGASRRLAGSSAD [F8A] | -0.308 |

Some of these lines once more (sample 3):
| Sequence | enrichment fold change |
| --- | --- |
| QQFSKLFPPKYTIDF | 2.95 |
| HQAHRTHFPSRTDYV | 4.04 |
| SFKHYDHTFHYHEGS | 8.47 |
